Results from different studies.
Compare with care: the assays were run in different laboratories.
Organism: Enterococcus faecalis

`CC[C@H](C)[C@H](N)C(=O)N[C@@H](CCCNC(=N)N)C(=O)N[C@H](C(=O)N[C@@H](Cc1c[nH]c2ccccc12)C(=O)N[C@@H](CCCCN)C(=O)N[C@@H](CCCCN)C(=O)N[C@H](C(=O)N[C@H](C(=O)N[C@@H](CCCNC(=N)N)C(=O)N[C@@H](CCCCN)C(=O)N[C@@H](Cc1c[nH]c2ccccc12)C(=O)N[C@@H](CCCCN)C(=O)N[C@@H](C)C(=O)N[C@H](C(=O)N[C@@H](Cc1c[nH]c2ccccc12)C(=O)N[C@@H](Cc1c[nH]cn1)C(N)=O)[C@@H](C)CC)C(C)C)[C@@H](C)CC)C(C)C` gave an MIC of 6.3 µM (broth dilution; KCTC 3511).
For `CC(C)[C@H](NC(=O)CNC(=O)CNC(=O)[C@H](Cc1ccc(O)cc1)NC(=O)[C@H](CS)NC(=O)[C@@H](NC(=O)[C@H](Cc1c[nH]c2ccccc12)NC(=O)[C@H](Cc1ccccc1)NC(=O)[C@H](CS)NC(=O)[C@H](Cc1c[nH]c2ccccc12)NC(=O)[C@@H](N)CCCNC(=N)N)C(C)C)C(=O)N[C@@H](CS)C(=O)N[C@@H](Cc1ccc(O)cc1)C(=O)N[C@@H](CCCNC(=N)N)C(=O)N[C@@H](CCCNC(=N)N)C(=O)N[C@@H](CS)C(=O)N[C@@H](CCCNC(=N)N)C(=O)O`, the MIC was 2.2 µg/mL (ATCC 29212).
For `CN[C@@H]1[C@H](O)[C@H](NC)[C@H]2O[C@]3(O)[C@H](O[C@@H]2[C@H]1O)O[C@H](C)C[C@H]3NC(=O)Cc1ccc(Cl)cn1`, the MIC was 25 µg/mL (microbial growth, broth dilution; ATCC33186).
`C#CCOc1ccc(CN[C@@]2(C)C[C@H](O[C@H]3[C@H](Oc4c5cc6cc4Oc4ccc(cc4Cl)[C@@H](O)[C@@H](NC(=O)[C@@H](CC(C)C)NC)C(=O)N[C@@H](CC(N)=O)C(=O)N[C@H]6C(=O)N[C@H]4C(=O)N[C@H](C(=O)N[C@H](C(=O)O)c6cc(O)cc(O)c6-c6cc4ccc6O)[C@H](O)c4ccc(c(Cl)c4)O5)O[C@H](CO)[C@@H](O)[C@@H]3O)O[C@@H](C)[C@H]2O)cc1OC` gave an MIC of 20 µM (broth microdilution; vancomycin-resistant).
`CN[C@@H]1[C@H](O)[C@H](NC)[C@H]2O[C@]3(O)[C@H](O[C@@H]2[C@H]1O)O[C@H](C)C[C@H]3NC(=O)Cc1ccccn1` gave an MIC of 100 µg/mL (microbial growth, broth dilution; ATCC33186).
`CN[C@H](CC(C)C)C(=O)N[C@H]1C(=O)N[C@@H](CC(N)=O)C(=O)N[C@H]2C(=O)N[C@H]3C(=O)N[C@H](C(=O)N[C@H](C(=O)O)c4cc(O)cc(O)c4-c4cc3ccc4O)[C@H](O)c3ccc(c(Cl)c3)Oc3cc2cc(c3O[C@@H]2O[C@H](CO)[C@@H](O)[C@H](O)[C@H]2O[C@H]2C[C@](C)(NCc3ccc(OCc4cn(CCCCC(=O)N[C@H](C(=O)N[C@@H](CCN)C(=O)N[C@H]5CCNC(=O)[C@H]([C@@H](C)O)NC(=O)[C@H](CCN)NC(=O)[C@H](CCN)NC(=O)[C@H](CC(C)C)NC(=O)[C@@H](CC(C)C)NC(=O)[C@H](CCN)NC5=O)[C@@H](C)O)nn4)c(OC)c3)[C@H](O)[C@H](C)O2)Oc2ccc(cc2Cl)[C@H]1O` has an MIC of 48 µM (broth microdilution; vancomycin-resistant).
For `CC[C@H](C)[C@H](NC(=O)[C@@H]1CCCN1C(=O)CNC(=O)[C@H](CC(C)C)NC(=O)[C@H](CCCCN)NC(=O)[C@H](CCCNC(=N)N)NC(=O)[C@H](Cc1c[nH]c2ccccc12)NC(=O)[C@H](C)NC(=O)[C@H](CC(N)=O)NC(=O)[C@H](CCCCN)NC(=O)[C@H](CC(C)C)NC(=O)[C@H](CCCCN)NC(=O)[C@H](CC(N)=O)NC(=O)[C@H](CCCNC(=N)N)NC(=O)[C@H](C)NC(=O)[C@H](CCCNC(=N)N)NC(=O)[C@H](CCCNC(=N)N)NC(=O)[C@H](Cc1ccccc1)NC(=O)[C@H](Cc1c[nH]c2ccccc12)NC(=O)CN)C(=O)N[C@H](C(=O)NCC(=O)N1CCC[C@H]1C(=O)N[C@@H](CC(C)C)C(=O)N[C@@H](CC(C)C)C(=O)N[C@H](C(=O)N[C@@H](CCCNC(=N)N)C(=O)O)[C@@H](C)O)C(C)C`, the MIC was 4.39 µg/mL (ATCC 29212).
`CN[C@H](CC(C)C)C(=O)N[C@H]1C(=O)N[C@@H](CC(N)=O)C(=O)N[C@H]2C(=O)N[C@H]3C(=O)N[C@H](C(=O)N[C@H](C(=O)NCc4cn(CC(=O)N[C@H](C(=O)N[C@@H](CCN)C(=O)N[C@H]5CCNC(=O)[C@H]([C@@H](C)O)NC(=O)[C@H](CCN)NC(=O)[C@H](CCN)NC(=O)[C@H](CC(C)C)NC(=O)[C@@H](CC(C)C)NC(=O)[C@H](CCN)NC5=O)[C@@H](C)O)nn4)c4cc(O)cc(O)c4-c4cc3ccc4O)[C@H](O)c3ccc(c(Cl)c3)Oc3cc2cc(c3O[C@@H]2O[C@H](CO)[C@@H](O)[C@H](O)[C@H]2O[C@H]2C[C@](C)(N)[C@H](O)[C@H](C)O2)Oc2ccc(cc2Cl)[C@H]1O` gave an MIC of 8 µg/mL (broth microdilution; vancomycin-resistant, tryptic soy broth; 20 to 24 h, 37 °C, 0.002% polysorbate 80).
For `CN[C@H](CC(C)C)C(=O)N[C@H]1C(=O)N[C@@H](CC(N)=O)C(=O)N[C@H]2C(=O)N[C@H]3C(=O)N[C@H](C(=O)N[C@H](C(=O)O)c4cc(O)cc(O)c4-c4cc3ccc4O)[C@H](O)c3ccc(c(Cl)c3)Oc3cc2cc(c3O[C@@H]2O[C@H](CO)[C@@H](O)[C@H](O)[C@H]2O[C@H]2C[C@](C)(N)[C@H](O)[C@H](C)O2)Oc2ccc(cc2Cl)[C@H]1O`, the MIC was < 1 µM (clinical isolate; 18 to 20 h, 37 °C).
For `c1ccc(CCNC2CCCc3c2[nH]c2ccc(C4CCCCC4)cc32)cc1` (stereo not shown), the MIC was 2 µg/mL (broth microdilution; JH2-2).
